Measurements from different studies.
Numbered parts are unrelated; each lists some results of a single study.

Study 1
Target: Histone acetyltransferase KAT6A, winged helix 2, GST fusion (KAT6A, Homo sapiens, UniProt Q92794, residues 85-181)
Method: protein binding microarray
Form: double-stranded DNA, one strand shown
Sample: in vitro
Concentration: not given
Notes: 8-mer, flanks averaged, mean of 2 arrays, mostly near background
Baseline: not given
Direction: higher = stronger binding
Quantity: E-score
Target sequence (chain): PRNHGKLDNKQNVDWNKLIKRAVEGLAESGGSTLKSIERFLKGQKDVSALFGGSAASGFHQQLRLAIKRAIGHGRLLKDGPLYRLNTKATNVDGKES
AAGGTTCA: 0.125
GCCTTCAA: -0.119
ACCGACGG: 0.171
CAGACCTG: -0.186
GGGCTCGA: 0.0166
AAGGTAGC: 0.0215

Study 2
Target: Centromere-binding protein 1, full length, His-tagged (CBF1, Saccharomyces cerevisiae, UniProt P17106, residues 1-351)
UniProt P17106, sequence (whole entry, looked up): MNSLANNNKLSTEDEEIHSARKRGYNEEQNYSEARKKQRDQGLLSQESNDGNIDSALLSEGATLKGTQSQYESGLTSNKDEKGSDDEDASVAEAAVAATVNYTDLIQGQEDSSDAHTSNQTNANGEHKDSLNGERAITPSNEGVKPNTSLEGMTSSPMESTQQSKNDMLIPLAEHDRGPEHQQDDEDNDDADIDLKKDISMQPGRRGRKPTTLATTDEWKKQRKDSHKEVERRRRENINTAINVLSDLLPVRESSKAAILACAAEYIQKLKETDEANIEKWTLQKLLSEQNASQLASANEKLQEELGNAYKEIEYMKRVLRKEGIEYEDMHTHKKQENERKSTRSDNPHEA
Method: competition protein-binding microarray
Form: double-stranded DNA, one strand shown
Sample: in vitro
Concentration: 2 µM
Notes: whole 60-bp probe, lowest competitor level
Added: Pho4 competitor, 0.05 µM
Direction: higher = stronger binding
Quantity: fluorescence intensity
GTACTTTTATAAACACACGTGGAGGAACTTTGGTATGTCTTGATTCGCTTGACGCTGCTG: 780 a.u.
CTTCTGTAAATTTGACCGGTGGGTGGACGCGCCCCGGTCTTGATTCGCTTGACGCTGCTG: 78.6 a.u.
AAAGCGGTAATTTGAGAAGTGGGTGCAGATATCTATGTCTTGATTCGCTTGACGCTGCTG: 76.1 a.u.
TTCCCAAGTATTGGACACGGGGCTGGAACTTGGAATGTCTTGATTCGCTTGACGCTGCTG: 94.2 a.u.

Study 3
Target: Sal-like protein 4, full length isoform A (SALL4, Homo sapiens, UniProt Q9UJQ4, residues 1-1053)
UniProt Q9UJQ4, sequence (whole entry, looked up): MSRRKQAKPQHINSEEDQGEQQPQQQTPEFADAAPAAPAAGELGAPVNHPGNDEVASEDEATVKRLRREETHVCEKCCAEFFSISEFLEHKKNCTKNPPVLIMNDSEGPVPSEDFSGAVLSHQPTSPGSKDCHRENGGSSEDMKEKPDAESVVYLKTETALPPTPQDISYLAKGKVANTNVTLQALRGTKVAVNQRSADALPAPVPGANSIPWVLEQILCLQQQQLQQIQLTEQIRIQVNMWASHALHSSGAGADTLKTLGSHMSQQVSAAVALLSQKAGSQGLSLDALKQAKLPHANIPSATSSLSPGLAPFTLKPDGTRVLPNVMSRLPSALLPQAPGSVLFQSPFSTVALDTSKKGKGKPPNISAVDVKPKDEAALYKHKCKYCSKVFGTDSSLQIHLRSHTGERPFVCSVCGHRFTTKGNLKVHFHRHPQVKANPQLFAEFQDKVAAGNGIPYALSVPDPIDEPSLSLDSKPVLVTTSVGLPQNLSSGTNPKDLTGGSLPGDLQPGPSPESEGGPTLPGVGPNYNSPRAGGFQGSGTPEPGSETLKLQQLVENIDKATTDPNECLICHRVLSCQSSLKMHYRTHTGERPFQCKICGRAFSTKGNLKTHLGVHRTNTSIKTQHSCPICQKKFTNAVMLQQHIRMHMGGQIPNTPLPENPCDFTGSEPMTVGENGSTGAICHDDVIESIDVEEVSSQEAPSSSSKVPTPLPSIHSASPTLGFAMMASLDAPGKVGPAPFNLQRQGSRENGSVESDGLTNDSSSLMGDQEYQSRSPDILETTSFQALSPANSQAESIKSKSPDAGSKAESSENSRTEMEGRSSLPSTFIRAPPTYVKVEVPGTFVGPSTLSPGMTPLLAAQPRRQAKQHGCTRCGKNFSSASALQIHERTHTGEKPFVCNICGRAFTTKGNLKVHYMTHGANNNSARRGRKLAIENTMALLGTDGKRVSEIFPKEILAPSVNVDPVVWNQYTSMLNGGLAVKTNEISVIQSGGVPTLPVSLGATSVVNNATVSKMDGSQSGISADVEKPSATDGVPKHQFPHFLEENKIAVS
Method: universal PBM
Form: double-stranded DNA, one strand shown
Sample: in vitro
Concentration: 600 nM
Notes: 8-mer, flanks averaged, mean of replicates
Direction: higher = stronger binding
Quantity: E-score
CCATTTAG: -0.0129
CACGTGGA: -0.0176
AGTTAGAG: -0.00781
AGCCCAGG: -0.351
CGCTTGGC: -0.261
CGCTCCGA: -0.15

Further values, each from its own experiment
PhoQ, residues 284 288 289 292 302 303 TYGVAM
fold induction (PhoP, residues 12 14 15 18 19 AWHSL (Escherichia coli, UniProt P23836); Sort-seq, refers to: YFP reporter; E. coli; PhoQ-PhoP variant library, added: 10 µM Mg2+; baseline: high Mg2+ state, higher = stronger signaling): 4.48

Repeated from above (study 3):
CGCTCCGA: -0.15
CGCTTGGC: -0.261
CCATTTAG: -0.0129
